Published values of several laboratories.
Each line is one published result; not all experiments were run side by side. Several values in a cell are separate wells, animals, samples, runs or records. ± marks the error that the study gave.
Tln1: Tln1 309-405 (Mus musculus, UniProt P26039)
Sequence of UniProt P26039 (whole entry, looked up): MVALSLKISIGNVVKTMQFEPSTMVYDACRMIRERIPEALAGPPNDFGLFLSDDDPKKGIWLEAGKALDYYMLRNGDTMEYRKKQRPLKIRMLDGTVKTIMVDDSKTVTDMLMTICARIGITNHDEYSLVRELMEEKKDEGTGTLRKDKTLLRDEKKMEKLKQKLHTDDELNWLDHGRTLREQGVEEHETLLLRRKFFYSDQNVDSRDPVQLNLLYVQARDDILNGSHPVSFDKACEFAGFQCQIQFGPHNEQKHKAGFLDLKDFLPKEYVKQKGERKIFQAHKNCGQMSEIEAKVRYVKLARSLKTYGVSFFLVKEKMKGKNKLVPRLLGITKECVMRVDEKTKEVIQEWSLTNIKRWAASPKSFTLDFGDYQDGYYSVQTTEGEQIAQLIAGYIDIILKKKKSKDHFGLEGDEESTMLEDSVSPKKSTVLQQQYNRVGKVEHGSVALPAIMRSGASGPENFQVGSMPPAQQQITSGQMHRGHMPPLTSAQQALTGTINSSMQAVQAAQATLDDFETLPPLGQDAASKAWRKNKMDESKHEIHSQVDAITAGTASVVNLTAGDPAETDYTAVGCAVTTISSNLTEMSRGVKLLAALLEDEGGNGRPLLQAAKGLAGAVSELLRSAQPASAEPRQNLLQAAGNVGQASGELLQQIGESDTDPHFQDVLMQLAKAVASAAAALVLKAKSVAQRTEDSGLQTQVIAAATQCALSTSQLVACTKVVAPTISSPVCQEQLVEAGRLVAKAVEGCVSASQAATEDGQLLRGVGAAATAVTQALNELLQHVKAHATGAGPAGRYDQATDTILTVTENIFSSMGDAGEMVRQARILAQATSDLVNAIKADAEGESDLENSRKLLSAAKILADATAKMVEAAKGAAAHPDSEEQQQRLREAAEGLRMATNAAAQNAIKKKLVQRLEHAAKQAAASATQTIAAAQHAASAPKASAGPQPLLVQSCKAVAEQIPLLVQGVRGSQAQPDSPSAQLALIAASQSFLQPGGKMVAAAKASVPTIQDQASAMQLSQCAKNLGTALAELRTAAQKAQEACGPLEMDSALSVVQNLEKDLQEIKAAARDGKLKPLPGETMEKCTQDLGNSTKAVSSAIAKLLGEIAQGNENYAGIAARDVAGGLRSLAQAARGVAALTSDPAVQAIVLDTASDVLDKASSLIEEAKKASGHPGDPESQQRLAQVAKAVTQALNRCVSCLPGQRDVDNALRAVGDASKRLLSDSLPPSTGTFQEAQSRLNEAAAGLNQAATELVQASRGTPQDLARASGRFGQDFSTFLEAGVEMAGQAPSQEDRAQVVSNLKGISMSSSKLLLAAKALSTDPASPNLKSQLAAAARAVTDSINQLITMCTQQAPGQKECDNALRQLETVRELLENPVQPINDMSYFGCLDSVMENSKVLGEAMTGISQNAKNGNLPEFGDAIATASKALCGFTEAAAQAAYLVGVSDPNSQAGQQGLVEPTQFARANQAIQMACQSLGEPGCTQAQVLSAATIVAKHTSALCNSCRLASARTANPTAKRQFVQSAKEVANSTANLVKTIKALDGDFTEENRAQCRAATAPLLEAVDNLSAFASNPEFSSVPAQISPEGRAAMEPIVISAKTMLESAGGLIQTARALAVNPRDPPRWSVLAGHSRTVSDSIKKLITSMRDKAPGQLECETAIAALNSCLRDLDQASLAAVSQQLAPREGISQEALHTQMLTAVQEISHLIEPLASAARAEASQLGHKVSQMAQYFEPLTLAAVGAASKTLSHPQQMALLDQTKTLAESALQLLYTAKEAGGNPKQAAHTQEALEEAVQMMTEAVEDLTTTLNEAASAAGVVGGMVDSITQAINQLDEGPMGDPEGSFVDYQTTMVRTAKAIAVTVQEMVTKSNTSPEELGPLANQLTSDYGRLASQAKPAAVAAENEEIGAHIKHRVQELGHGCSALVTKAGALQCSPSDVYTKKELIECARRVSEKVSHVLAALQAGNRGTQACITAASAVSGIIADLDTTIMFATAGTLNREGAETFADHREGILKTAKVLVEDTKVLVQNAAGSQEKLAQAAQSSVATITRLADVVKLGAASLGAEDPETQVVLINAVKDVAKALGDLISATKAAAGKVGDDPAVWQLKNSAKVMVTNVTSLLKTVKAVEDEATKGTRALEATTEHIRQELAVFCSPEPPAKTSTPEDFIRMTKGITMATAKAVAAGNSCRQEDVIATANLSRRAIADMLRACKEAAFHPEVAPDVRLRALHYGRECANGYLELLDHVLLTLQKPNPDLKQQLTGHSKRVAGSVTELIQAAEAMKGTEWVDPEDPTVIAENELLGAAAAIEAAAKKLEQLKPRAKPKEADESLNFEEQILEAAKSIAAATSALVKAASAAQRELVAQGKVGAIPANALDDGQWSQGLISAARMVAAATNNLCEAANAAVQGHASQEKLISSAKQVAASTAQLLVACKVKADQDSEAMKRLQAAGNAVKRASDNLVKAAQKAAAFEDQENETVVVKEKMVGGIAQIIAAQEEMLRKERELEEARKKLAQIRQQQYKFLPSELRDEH
CALM1: CALM1 (Homo sapiens, UniProt P0DP23)
CDC48A: CDC48A 1-463 (Arabidopsis thaliana, UniProt P54609)
Sequence of UniProt P54609 (whole entry, looked up): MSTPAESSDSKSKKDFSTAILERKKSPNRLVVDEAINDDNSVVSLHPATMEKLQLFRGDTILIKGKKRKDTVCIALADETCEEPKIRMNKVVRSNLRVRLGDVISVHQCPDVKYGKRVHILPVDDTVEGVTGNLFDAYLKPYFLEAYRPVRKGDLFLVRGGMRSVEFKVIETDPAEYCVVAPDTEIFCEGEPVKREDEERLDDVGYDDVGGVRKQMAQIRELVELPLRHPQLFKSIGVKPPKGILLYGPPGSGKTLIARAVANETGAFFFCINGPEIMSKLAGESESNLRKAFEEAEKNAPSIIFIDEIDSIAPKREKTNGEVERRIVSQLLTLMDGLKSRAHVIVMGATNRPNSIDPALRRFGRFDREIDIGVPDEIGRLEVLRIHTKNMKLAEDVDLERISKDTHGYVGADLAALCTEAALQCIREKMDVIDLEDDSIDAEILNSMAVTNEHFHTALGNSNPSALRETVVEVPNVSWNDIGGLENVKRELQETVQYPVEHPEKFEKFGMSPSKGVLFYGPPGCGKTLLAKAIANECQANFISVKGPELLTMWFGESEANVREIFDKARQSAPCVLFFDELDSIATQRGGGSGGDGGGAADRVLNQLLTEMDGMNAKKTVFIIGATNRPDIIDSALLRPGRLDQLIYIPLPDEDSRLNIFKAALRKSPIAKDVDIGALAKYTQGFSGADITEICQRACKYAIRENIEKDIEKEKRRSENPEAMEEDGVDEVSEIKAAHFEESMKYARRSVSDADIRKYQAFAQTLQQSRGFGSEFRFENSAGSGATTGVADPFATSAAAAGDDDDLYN
ACTA1 F-actin: ACTA1 F-actin (Oryctolagus cuniculus, UniProt P68135)
T1: ATRX ADD domain 167-289 K251R/F284Y (Homo sapiens); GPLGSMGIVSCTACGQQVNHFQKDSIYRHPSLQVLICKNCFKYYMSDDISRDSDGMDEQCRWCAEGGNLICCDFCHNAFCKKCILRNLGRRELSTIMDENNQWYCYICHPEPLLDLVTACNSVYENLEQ
B1: EFR3A 721-791 (Homo sapiens, UniProt Q14156); chain SNTEEITFEALKKAIDTSGMEEQEKEKRRLVIEKFQKAPFEEIAAQCESKANLLHDRLAQILELTIRPPPS
B2: RSPO4/IgG1 Fc RSPO4 32-137 Q65R/N297Q; CPT2 conjugated via azide click; chain GGNCTGCIICSEENGCSTCQQRLFLFIRREGIRRYGKCLHDCPPGYFGIRGQEVNRCKKCGATCESCFSQDFCIRCKRQFYLYKGKCLPTCPPGTLAHQNTRECQGGGGGSGGGGSGGGGS
B3: BRAF kinase 448-723 K723G/P722S/S720E/L716E/S713E/Q709R/L706S/A688R/Y673S/K630S/V600E/L588N/Q562R/I551K (Homo sapiens, UniProt P15056); sequence looked up; chain DDWEIPDGQITVGQRIGSGSFGTVYKGKWHGDVAVKMLNVTAPTPQQLQAFKNEVGVLRKTRHVNILLFMGYSTKPQLAIVTQWCEGSSLYHHLHASETKFEMKKLIDIARQTARGMDYLHAKSIIHRDLKSNNIFLHEDNTVKIGDFGLATEKSRWSGSHQFEQLSGSILWMAPEVIRMQDSNPYSFQSDVYAFGIVLYELMTGQLPYSNINNRDQIIFMVGRGSLSPDLSKVRSNCPKRMKRLMAECLKKKRDERPSFPRILAEIEELARELSG
B4: PIK3R1 1-79 (Homo sapiens, UniProt P27986); chain MSAEGYQYRALYDYKKEREEDIDLHLGDILTVNKGSLVALGFSDGQEARPEEIGWLNGYNETTGERGDFPGTYVEYIGR
B5: CFH domains 1108-1231 V1197A (Homo sapiens, UniProt P08603); sequence looked up; chain KCGPPPPIDNGDITSFPLSVYAPASSVEYQCQNLYQLEGNKRITCRNGQWSEPPKCLHPCVISREIMENYNIALRWTAKQKLYSRTGESAEFVCKRGYRLSSRSHTLRTTCWDGKLEYPTCAKR
B6: CFH 1108-1231 R1203S (Homo sapiens, UniProt P08603); sequence looked up; chain KCGPPPPIDNGDITSFPLSVYAPASSVEYQCQNLYQLEGNKRITCRNGQWSEPPKCLHPCVISREIMENYNIALRWTAKQKLYSRTGESVEFVCKSGYRLSSRSHTLRTTCWDGKLEYPTCAKR
B7: OTULIN 55-352 C129S (Homo sapiens, UniProt Q96BN8); sequence looked up; chain MYRAADEIEKEKELLIHERGASEPRLSVAPEMDIMDYCKKEWRGNTQKATCMKMGYEEVSQKFTSIRRVRGDNYSALRATLFQAMSQAVGLPPWLQDPELMLLPEKLISKYNWIKQWKLGLKFDGKNEDLVDKIKESLTLLRKKWAGLAEMRTAEARQIACDELFTNEAEEYSLYEAVKFLMLNRAIELYNDKEKGKEVPFFSVLLFARDTSNDPGQLLRNHLNQVGHTGGLEQVEMFLLAYAVRHTIQVYRLSKYNTEEFITVYPTDPPKDWPVVTLIAEDDRHYNIPVRVCEETSL
B8: PUX5 301-421 M393A/F395A (Arabidopsis thaliana, UniProt Q7Y175); chain KNPFQGVGRTLGASGSGSSSAPQASSAPMNVAPAPSRGLVVDPAAPTTSIQLRLADGTRLVSRFNNHHTVRDVRGFIDASRPGGSKEYQLLTAGAPPKQLTELDQTIEQAGIANAVVIQKF
B9: MDM4 23-190 (Homo sapiens, UniProt O15151); chain GPLGSQINQVRPKLPLLKILHAAGAQGEMFTVKEVMHYLGQYIMVKQLYDQQEQHMVYCGGDLLGELLGRQSFSVKDPSPLYDMLRKNLVTLATATTDAAQTLALAQDHSMDIPSQDQLKQSAEESSTSRKRTTEDDIPTLPTSEHKCIHSREDEDLIENLAQDETSRLDLGF
B10: PUX5 301-421 R353A (Arabidopsis thaliana, UniProt Q7Y175); chain KNPFQGVGRTLGASGSGSSSAPQASSAPMNVAPAPSRGLVVDPAAPTTSIQLALADGTRLVSRFNNHHTVRDVRGFIDASRPGGSKEYQLLTMGFPPKQLTELDQTIEQAGIANAVVIQKF
B11: Cacna1c 1647-1777 (Mus musculus, UniProt Q01815); sequence looked up; chain NALSLQAGLRTLHDIGPEIRRAISGDLTAEEELDKAMKEAVSAASEDDIFRRAGGLFGNHVTYYQSDSRGNFPQTFATQRPLHINKTGNNQADTESPSHEKLVDSTFTPSSYSSTGSNANINNANNTALGR
B12: RAP1A 1-166 (Homo sapiens, UniProt P62834); sequence looked up; chain MREYKLVVLGSGGVGKSALTVQFVQGIFVEKYDPTIEDSYRKQVEVDCQQCMLEILDTAGTEQFTAMRDLYMKNGQGFALVYSITAQSTFNDLQDLREQILRVKDTEDVPMILVGNKCDLEDERVVGKEQGQNLARQWCNCAFLESSAKSKINVNEIFYDLVRQIN
B13: TEPSIN W188S/D189S/E190S/L191S (Homo sapiens, UniProt Q96N21); chain MAAAPPLRDRLSFLHRLPILLKGTSDDDVPCPGYLFEEIAKISHESPGSSQCLLEYLLSRLHSSSGHGKLKVLKILLYLCSHGSSFFLLILKRNSAFIQEAAAFAGPPDPLHGNSLYQKVRAAAQDLGSTLFSDTVLPLAPSQPLGTPPATGMGSQARPHSTLQGFGYSKEHGRTAVRHQPGQAGGGSSSSDSGPSSQNSSQNSDLSRVSDSGSHSGSDSHSGASREPGDLAERVEVVALSDCQQELSLVRTVTRGPRAFLSREEAQHFIKACGLLNCEAVLQLLTCHLRGTSECTQLRALCAIASLGSSDLLPQEHILLRTRPWLQELSMGSPGPVTNKATKILRHFEASCGQLSPARGTSAEPGPTAALPGPSDLLTDAVPLPGSQVFLQPLSSTPVSSRSPAPSSGMPSSPVPTPPPDASPIPAPGDPSEAEARLAESRRWRPERIPGGTDSPKRGPSSCAWSRDSLFAGMELVACPRLVGAGAAAGESCPDAPRAPQTSSQRTAAKEPPGSEPSAFAFLNA
B14: FLT3LG 27-185 (Homo sapiens, UniProt P49771); sequence looked up; chain TQDCSFQHSPISSDFAVKIRELSDYLLQDYPVTVASNLQDEELCGGLWRLVLAQRWMERLKTVAGSKMQGLLERVNTEIHFVTKCAFQPPPSCLRFVQTNISRLLQETSEQLVALKPWITRQNFSRCLELQCQPDSSTLPPPWSPRPLEATAPTAPQPP
B15: SIL1 20-421 (Saccharomyces cerevisiae, UniProt Q08199); chain TILHSSIHSVPSGGEIISAEDLKELEISGNSICVDNRCYPKIFEPRHDWQPILPGQELPGGLDIRINMDTGLKEAKLNDEKNVGDNGSHELIVSSEDMKASPGDYEFSSDFKEMRNIIDSNPTLSSQDIARLEDSFDRIMEFAHDYKHGYKIITHEFALLANLSLNENLPLTLRELSTRVITSCLRNNPPVVEFINESFPNFKSKIMAALSNLNDSNHRSSNILIKRYLSILNELPVTSEDLPIYSTVVLQNVYERNNKDKQLQIKVLELISKILKADMYENDDTNLILFKRNAENWSSNLQEWANEFQEMVQNKSIDELHTRTFFDTLYNLKKIFKSDITINKGFLNWLAQQCKARQSNLDNGLQERDTEQDSFDKKLIDSRHLIFGNPMAHRIKNFRDEL
Sequence of UniProt P01024 (whole entry, looked up): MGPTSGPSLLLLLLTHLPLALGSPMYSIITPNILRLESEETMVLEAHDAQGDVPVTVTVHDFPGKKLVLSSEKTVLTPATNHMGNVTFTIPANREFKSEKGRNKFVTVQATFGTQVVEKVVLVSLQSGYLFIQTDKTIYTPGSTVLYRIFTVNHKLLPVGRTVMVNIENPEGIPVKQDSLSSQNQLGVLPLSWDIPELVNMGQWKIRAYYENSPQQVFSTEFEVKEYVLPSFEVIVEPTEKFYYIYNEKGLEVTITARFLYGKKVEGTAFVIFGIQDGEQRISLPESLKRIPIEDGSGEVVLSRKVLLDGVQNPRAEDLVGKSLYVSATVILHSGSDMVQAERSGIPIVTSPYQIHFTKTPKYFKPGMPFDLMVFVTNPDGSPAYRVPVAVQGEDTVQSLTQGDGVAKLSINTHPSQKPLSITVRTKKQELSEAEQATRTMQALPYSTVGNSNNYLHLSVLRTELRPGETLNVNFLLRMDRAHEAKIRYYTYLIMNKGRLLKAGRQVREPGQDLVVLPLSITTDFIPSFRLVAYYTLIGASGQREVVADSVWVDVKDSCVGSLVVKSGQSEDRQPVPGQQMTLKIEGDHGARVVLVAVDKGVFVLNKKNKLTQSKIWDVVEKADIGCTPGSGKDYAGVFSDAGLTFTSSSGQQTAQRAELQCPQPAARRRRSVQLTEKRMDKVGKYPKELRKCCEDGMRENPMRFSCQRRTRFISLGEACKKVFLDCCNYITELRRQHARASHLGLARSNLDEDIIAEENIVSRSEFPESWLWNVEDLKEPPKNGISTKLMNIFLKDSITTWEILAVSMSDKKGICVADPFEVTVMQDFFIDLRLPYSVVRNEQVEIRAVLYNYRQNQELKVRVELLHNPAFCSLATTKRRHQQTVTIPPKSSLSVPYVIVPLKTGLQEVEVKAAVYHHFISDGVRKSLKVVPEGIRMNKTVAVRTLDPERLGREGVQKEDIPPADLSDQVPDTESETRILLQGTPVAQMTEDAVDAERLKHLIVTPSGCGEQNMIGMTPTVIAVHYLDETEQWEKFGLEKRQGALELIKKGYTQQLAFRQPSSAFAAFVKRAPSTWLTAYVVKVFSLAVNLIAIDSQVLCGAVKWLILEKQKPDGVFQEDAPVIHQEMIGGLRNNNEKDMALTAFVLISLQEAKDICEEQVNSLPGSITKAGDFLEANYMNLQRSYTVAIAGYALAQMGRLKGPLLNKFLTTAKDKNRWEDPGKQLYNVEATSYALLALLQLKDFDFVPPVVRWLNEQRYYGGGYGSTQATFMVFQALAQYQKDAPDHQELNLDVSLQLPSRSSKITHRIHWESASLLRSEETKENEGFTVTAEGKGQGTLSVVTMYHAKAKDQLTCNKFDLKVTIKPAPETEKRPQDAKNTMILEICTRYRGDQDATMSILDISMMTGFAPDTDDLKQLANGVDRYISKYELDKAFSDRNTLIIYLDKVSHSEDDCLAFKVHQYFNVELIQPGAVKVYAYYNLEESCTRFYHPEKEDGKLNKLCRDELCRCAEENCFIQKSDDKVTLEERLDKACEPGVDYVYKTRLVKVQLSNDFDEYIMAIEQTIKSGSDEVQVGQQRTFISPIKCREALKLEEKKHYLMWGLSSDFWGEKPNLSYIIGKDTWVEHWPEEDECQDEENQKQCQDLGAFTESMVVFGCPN

The Kd of `B1 (EFR3A 721-791)` is reported as 4.1e-05 ± 2.5e-05 µM (TTC7B/FAM126A 1-308; BLI).
`KLLMIIHDRREFAKFEKEKMNAKWDTGENPIYKSAVTTVVNPKYEGK (ITGB1 752-798 (Homo sapiens, UniProt P05556-1); sequence looked up)` has a Kd of 491 µM (Tln1; NMR titration).
`PRPRPRPRPRPRPRPRPRPRPRPRPRPRPRPRPRPRPRPR ((PR)20 20 repeats; TAMRA label N-terminal)` gave a Kd of 0.144 ± 0.0255 µM (FUS 1-214 (Homo sapiens, UniProt P35637); fluorescence polarisation; peptide).
The Kd of `SPTF (BRIP1 peptide 990-993; N-acetyl, pS, C-amide)` is reported as 2.31 ± 0.06 µM (BRCA1 BRCT domain; ITC; peptide).
The Kd of `B2` is reported as 0.002 µM (LGR6 (Homo sapiens, UniProt Q9HBX8); whole-cell binding saturation; Fc fusion, HEK293T).
`B3` gave a Kd of 0.0324 ± 0.00134 µM (MAP2K1 (Homo sapiens, UniProt Q02750); BLI).
For `B4 (PIK3R1 1-79)`, the Kd was 22.3 ± 2.5 µM (PIK3R1 80-724 (Homo sapiens, UniProt P27986); ITC).
The Kd of `Ybx1 (Mus musculus, UniProt P62960)` is reported as 0.0428 ± 0.0057 µM (Purb R297Q (Mus musculus); ELISA).
With `B5 (CFH domains 1108-1231 V1197A)` the Kd was 4.4 ± 0.3 µM (C3 C3dg 955-1303 (Homo sapiens, UniProt P01024); SPR).
With `ALLLSAPRR (P5 peptide; fluorescein label)` the Kd was 0.21 µM (SSC1 mature P486S (Saccharomyces cerevisiae); fluorescence polarization; peptide; 25 nM).
`SCN2A fragment Y1916A (Homo sapiens) (sequence not shown)` gave a Kd of 0.0733 µM (CALM1; fluorescence titration; added: CaCl2).
`B6 (CFH 1108-1231 R1203S)` gave a Kd of 13.7 ± 0.3 µM (C3 996-1303 (Homo sapiens, UniProt P01024); SPR).
The Kd of `B7 (OTULIN 55-352 C129S)` is reported as 0.83 µM (linear di-ubiquitin fragment; ITC).
`B8 (PUX5 301-421 M393A/F395A)` has a Kd of 4 ± 0.3 µM (CDC48A; ITC; 25 °C).
The Kd of `ARTKQTARKS (histone H3 1-10; K4me3)` is reported as 59.4 ± 5.6 µM (ING2 189-262 Y208A (Arabidopsis thaliana, UniProt B3H615); ITC; peptide).
`AATKQTARKS (H3C1 1-10 R2A)` gave a Kd of 127 µM (T1, ATRX ADD domain 167-289 K251R/F284Y (Homo sapiens); ITC; peptide).
With `SCN2A fragment Q1913R (Homo sapiens) (sequence not shown)` the Kd was 2.07 µM (CALM1; fluorescence titration; added: CaCl2).
The Kd of `PSPFTPPPPQTPSP (SOS1 proline-rich peptide, 1253-1266)` is reported as 580 µM (GRB2 1-58 (Homo sapiens, UniProt P62993); NMR titration; peptide).
The Kd of `B9 (MDM4 23-190)` is reported as 0.073 µM (TP53 1-312 (UniProt P04637); ITC).
`SPTBN2 fragment (Homo sapiens) (sequence not shown)` gave a Kd of 55.2 µM (ACTA1 F-actin; co-sedimentation).
`B10 (PUX5 301-421 R353A)` gave a Kd of 4.4 ± 0.4 µM (CDC48A; ITC; 25 °C).
`CDH2 EC3-EC5 (Homo sapiens)` has a Kd of 0.0787 µM (FGB residues 15-66, dimer (Homo sapiens); ELISA).
`B11 (Cacna1c 1647-1777)` gave a Kd of 5.46 µM (Jph2 1-440 S165E (Mus musculus, UniProt Q9ET78); ITC).
With `PALLD Ig3-Ig4 tandem del21 linker residues` the Kd was 15.7 ± 3.4 µM (ACTA1 F-actin; co-sedimentation).
`CALLLSAPRR (GOT2 (Gallus gallus); fluorescein label)` gave a Kd of 34.5 µM (HSPA9 47-600 (Homo sapiens, UniProt P38646); FP; peptide).
`B12 (RAP1A 1-166)` gave a Kd of 31 ± 5 µM (PREX1 (Homo sapiens, UniProt Q8TCU6); fluorescence titration; added: mant-GTP 1 µM).
For `B13 (TEPSIN W188S/D189S/E190S/L191S)`, the Kd was 92.3 µM and 96.3 µM and 114 µM and 101 µM (MAP1LC3B 1-120 (Homo sapiens, UniProt Q9GZQ8); BLI).
The Kd of `B14 (FLT3LG 27-185)` is reported as 0.0463 µM (FLT3 27-543 (Homo sapiens, UniProt P36888); SPR).
For `B15 (SIL1 20-421)`, the Kd was 8.4 ± 1.6 µM (HSPA5 28-654 (Homo sapiens, UniProt P11021); MST).
The Kd of `FIYWPWADLGVPDCG (macrocyclic peptide; cyclic)` is reported as 0.09 µM and 0.06 µM and 0.1 µM (NRAS fragment (Homo sapiens); SPR; peptide).
With `KLLITIHDRKEFAKFEEERARAKWDTAENPIYKEATSTFTNITYRGT (ITGB3 742-788 N743E/L746I (Homo sapiens, UniProt P05106); sequence looked up)` the Kd was 201 µM (Tln1; NMR titration).
`GSGVTQTTKCCYSLEFHQ (designed peptide)` has a Kd of 1.6 ± 0.4 µM (ERBB2 23-652 (Homo sapiens, UniProt P04626); ELISA; peptide).

A few entries again:
`B11 (Cacna1c 1647-1777)` gave a Kd of 5.46 µM (Jph2 1-440 S165E (Mus musculus, UniProt Q9ET78); ITC).
The Kd of `Ybx1 (Mus musculus, UniProt P62960)` is reported as 0.0428 ± 0.0057 µM (Purb R297Q (Mus musculus); ELISA).
